Measured values of several laboratories.
Each line is one published result; not all experiments were run side by side.
Cell line: Calu-3

Structure (SMILES)	effect on	technique	concentration	time	quantity	value
O=C1C(O)=C(Nc2ccc(F)cc2)C(=O)c2ccccc21	cell growth or viability	–	–	72 h	CC50	67 µM
CC(=O)OC1(C)CC(C=C(C)CCC=C(C)C)OC2(C=C(CO)C3CC(=O)C(C)=CC3O2)C1 (centres unmarked)	cell growth or viability	resazurin	–	48 h	CC50	> 100 µM
C[C@H]1[C@H](OC(=O)CC[C@@H](C)C2CCC3C4C(CC[C@@]32C)[C@@]2(C)CC[C@@H](O)CC2C[C@@H]4O)O[C@@H]2O[C@@]3(C)CCC4[C@H](C)CC[C@@H]1[C@]42OO3 (some centres unmarked)	–	–	up to 20 µM	–	cytotoxicity	not toxic
CCN(c1nc(N)c(C(=O)NC(=N)N)nc1Cl)C(C)C	–	ATP content	–	48 (unit not given)	IC50	> 30 µM
O=C1C(O)=C(Nc2cccc(C(F)(F)F)c2)C(=O)c2ccccc21	cell growth or viability	–	–	72 h	CC50	48 µM
COC(=O)CC[C@@H](C)C1CCC2C3C(CC[C@@]21C)[C@@]1(C)CC[C@@H](n2cc(CO[C@H]4O[C@@H]5O[C@@]6(C)CCC7[C@H](C)CC[C@@H]([C@H]4C)[C@]75OO6)nn2)CC1C[C@@H]3O (some centres unmarked)	–	–	up to 20 µM	–	cytotoxicity	not toxic
CO/C1=C\C(C)=C\[C@@H](C)[C@@H](O)[C@@H](C)C/C(C)=C/C=C/[C@H](OC)[C@@H]([C@@H](C)[C@@H](O)[C@H](C)C(=O)/C=C/[C@H](C)[C@H](O)C(C)C)OC1=O	cell growth or viability	resazurin	–	48 h	CC50	43 µM
Nc1nccnc1C(=O)Nc1nc2ccc(OC(F)(F)F)cc2s1	–	ATP content	–	48 (unit not given)	IC50	2.24 µM

For quick reference, copied from above:
Structure (SMILES)	effect on	technique	concentration	time	quantity	value
CCN(c1nc(N)c(C(=O)NC(=N)N)nc1Cl)C(C)C	–	ATP content	–	48 (unit not given)	IC50	> 30 µM
